Measured values from different studies.
A part holds a random share of what one study measured. Substitutions count along the parent as printed.

Series 1 — technique: protein-binding microarray; form: double-stranded DNA, one strand shown; sample: in vitro; tested at: 250 nM; setting: 60-bp whole probe; with: salmon DNA 0.4 mg/ml; baseline: random background probes; direction: higher = stronger binding; constant ends, left off below: GCCTAGCAC … GTCTTGATTCGCTTGACGCTGCTG
Target: Interferon regulatory factor 5, full length, phosphomimetic (IRF5, Homo sapiens, UniProt Q13568-2, residues 1-514, K96S/S451D/S453D/S456D/S462D)
Strand | log fluorescence
TGTTTTTCATTTTTTTTCATGTGCTAG | 2.67 z-score
GACGGTATCGACACTGCGGACGTGCTA | 1.56 z-score
GACGATATCGGTTTCGGGACGTGCTAG | 7.73 z-score
GGCGGTTTCCTTTCCCTGACGTGCTAG | 1.09 z-score
TTAGGTATGGACACTGGGTTAGTGCTA | -0.166 z-score
GACGATCCCAGTTTCGAGACGTGCTAG | 4.74 z-score
GACGGACTTGGGACTGGGGACGTGCTA | -0.319 z-score
GACGGTTTCGGTATCGGGTCGTGCTAG | 10.5 z-score
GACAGTTTCGGTCTCGGGACGTGCTAG | 10.8 z-score
TTAGGACTGTACACTGGGTTAGTGCTA | 0.0377 z-score
TTAGATTTCGGGTAGCGATTAGTGCTA | 5.55 z-score
TCATTCATGAAGTTTTAAACTGTGCTA | 0.659 z-score
TTAGATTCCAATTTCGATTAGTGCTAG | 7.13 z-score
CCCTAGGGGCTCTCAGAGATGTGCTAG | -0.859 z-score
GACGGGATCCTTTTCCTGACGTGCTAG | -0.121 z-score
TTTTTGGATGCTGGAAAAATGTGCTAG | 1.05 z-score
TCAGTCATCTATAATGGAACTGTGCTA | 0.474 z-score
TTAGACTTCAGTCTCGATTAGTGCTAG | 0.572 z-score
GACGGTTTCGACTATCAGGACGTGCTA | 6.95 z-score
GACGGTTTCAGTATCGAGACGTGCTAG | 5.75 z-score
AAGTTTATACCTTAGGTTTTGTGCTAG | 0.112 z-score
CGATTACAGCTAGGTAGTGGGTGCTAG | -0.284 z-score

Series 2 — technique: RNA Bind-n-Seq; form: RNA; sample: in vitro; tested at: 20 nM; setting: 6-mer, flanks averaged, single round; with: 150 mM KCl; baseline: input library; direction: higher = stronger binding
Target: TAR DNA-binding protein 43, full length, His tag (TARDBP, Homo sapiens, UniProt Q13148, residues 1-414)
Strand | 6-mer enrichment (R)
CUUAAU | 0.581
CGAGAG | 1.5
AAAUGG | 0.966
CGCGUU | 0.719
GAGAGU | 1.45
UCCGUC | 0.602
GAGUGG | 3.64
GCUGGA | 1.36
GAAAAU | 0.686
GACGCG | 1.68
UUAAGC | 0.612
GCCUGG | 1.53
CUUUCG | 0.578
UAACGC | 0.633
AUUGCU | 0.589
GUUUCA | 0.597
UGCCUA | 0.649
CGCAGA | 0.862
GCGGAC | 1.53
CCCUCC | 0.622
GUGACU | 0.82
GAGGGC | 4.88
GAGCUG | 1.35
CUUACU | 0.561

Series 3 — technique: universal PBM; form: double-stranded DNA, one strand shown; sample: in vitro; tested at: not given; direction: higher = stronger binding
Target: Sal-like protein 4, full length isoform B (SALL4, Homo sapiens, UniProt Q9UJQ4-2, residues 1-616)
Setting: 8-mer, flanks averaged, mean of replicates
Target sequence (chain): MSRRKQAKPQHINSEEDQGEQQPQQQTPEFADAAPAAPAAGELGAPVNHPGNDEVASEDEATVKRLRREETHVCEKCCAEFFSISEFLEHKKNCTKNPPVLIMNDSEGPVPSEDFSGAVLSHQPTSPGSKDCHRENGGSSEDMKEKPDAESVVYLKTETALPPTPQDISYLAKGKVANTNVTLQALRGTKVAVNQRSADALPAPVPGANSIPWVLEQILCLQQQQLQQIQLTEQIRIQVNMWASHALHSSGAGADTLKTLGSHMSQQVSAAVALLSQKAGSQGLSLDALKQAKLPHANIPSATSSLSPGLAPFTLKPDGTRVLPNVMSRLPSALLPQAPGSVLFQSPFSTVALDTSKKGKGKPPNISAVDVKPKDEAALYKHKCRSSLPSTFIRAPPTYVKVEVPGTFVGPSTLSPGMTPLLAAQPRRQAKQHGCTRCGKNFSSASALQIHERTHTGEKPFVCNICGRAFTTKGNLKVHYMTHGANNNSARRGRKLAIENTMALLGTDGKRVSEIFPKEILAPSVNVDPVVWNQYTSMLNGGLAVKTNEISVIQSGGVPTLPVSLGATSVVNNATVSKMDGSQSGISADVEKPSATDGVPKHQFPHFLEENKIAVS
Strand | E-score
AAAACAGG | 0.0463
CACCATCA | 0.0304
CCAGGCAA | -0.173
AGACCTCT | -0.114
AAGAACCT | -0.0195
CCAAATGG | -0.0418
ATGTTGAG | 0.162
CAAGAGGC | -0.134
ATCATTAG | 0.204
AGTCCTTC | -0.236
AAGCGTAC | 0.0263
TCGTCCAA | 0.0754
ACGCAGGG | -0.129
AATCGAGA | 0.131
AGACCACA | -0.0868
AACGTACA | 0.194
AGTATGAT | 0.271
CCAGACTC | -0.169
AGAGCGAA | -0.0717
CACGACAG | -0.0621
ATACCCGA | -0.117
CCATGTAA | 0.0854
CCTAGCAC | -0.0726
AGCTCAGC | -0.231
CTGCATAA | 0.197

Series 4 — technique: protein binding microarray; form: double-stranded DNA, one strand shown; sample: in vitro; tested at: not given; baseline: not given; direction: higher = stronger binding
Target: Histone acetyltransferase KAT6A, both winged helices, GST fusion (KAT6A, Homo sapiens, UniProt Q92794, residues 1-181)
Setting: 8-mer, flanks averaged, mean of 2 arrays, mostly near background
Target sequence (chain): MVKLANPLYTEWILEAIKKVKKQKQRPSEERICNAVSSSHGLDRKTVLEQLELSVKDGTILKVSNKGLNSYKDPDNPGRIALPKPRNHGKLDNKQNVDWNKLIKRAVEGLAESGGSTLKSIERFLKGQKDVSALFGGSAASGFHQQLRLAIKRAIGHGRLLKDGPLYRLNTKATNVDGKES
Strand | E-score
CATCAACA | 0.0978
AACCAGTA | 0.0502
ATGAAACC | -0.0239
CACGAGCC | -0.0864
ACGTTAGT | 0.0331
ACTAACCT | -0.0639
AATAGGTC | 0.0256
CCTAGAGC | 0.035
CCTCCCAC | -0.0696
CCTAGCCG | 0.133
ATGGCATC | -0.161
GGACCGAA | -0.0883
CACTACAC | -0.00976
AAGGAACC | 0.0067
AACAACCG | 0.0825
CTAGGTAC | -0.166
CCCCCTAC | -0.218
CTAACTAC | -0.0375
AGTAATAC | -0.0457
AGAATATG | -0.0872
AAATCGGT | 0.00856
ATCCGGTA | -0.0257
ACACGGTA | 0.206
ACTTATGC | -0.12

Series 5 — target: CCND3, cyclin fold, Cln2 fusion (human); technique: yeast growth competition, sequencing; sample: yeast; setting: weak parent motif; baseline: not given; direction: higher = stronger binding
Parent: RBL2 docking peptide (human); STTRRRLFVENDS; partner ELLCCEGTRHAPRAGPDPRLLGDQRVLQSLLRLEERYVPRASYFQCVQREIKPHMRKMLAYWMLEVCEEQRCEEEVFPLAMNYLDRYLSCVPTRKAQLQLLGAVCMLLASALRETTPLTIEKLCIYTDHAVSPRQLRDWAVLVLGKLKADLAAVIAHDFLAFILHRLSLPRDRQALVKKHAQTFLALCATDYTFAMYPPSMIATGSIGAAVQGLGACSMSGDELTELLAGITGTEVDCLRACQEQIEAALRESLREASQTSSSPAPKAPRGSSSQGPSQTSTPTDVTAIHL
Substitution | normalised enrichment score
S1A | 0.147
S1L | 0.209
R4T | 0.062
T2Q | 0.237
L7M | 0.133
S13P | 0.109
E10K | 0.0533
S1W | 0.0255
T2R | 0.0404
E10V | 0.136
T3H | 0.0652
F8M | 0.0671
S1D | 0.159
D12M | 0.0791
R5V | 0.112
L7F | 0.116
N11A | 0.0232
E10S | 0.16
S1C | 0.202
L7Y | 0.0382
R5S | 0.125
F8H | 0.067
T3V | 0.132

Series 6 — technique: RNA Bind-n-Seq; form: RNA; sample: in vitro; tested at: 365 nM; baseline: no-protein control; direction: higher = stronger binding
Target: RNA binding protein fox-1 homolog 2, RRM domain, GST-SBP tag (RBFOX2, Homo sapiens, UniProt O43251-10, residues 100-194)
Setting: natural RNA segment, single round, ends assumed
Constant ends, left off below: GGGAGUUCUACAGUCCGACGAUC … UGGAAUUCUCGGGUGCCAA
Construct (chain): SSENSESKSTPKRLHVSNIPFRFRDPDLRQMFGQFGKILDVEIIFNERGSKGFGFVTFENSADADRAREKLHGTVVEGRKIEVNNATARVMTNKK
Strand | RBNS enrichment (R)
AUGAAUCUUGCAUCAAUAUAAUUAUUGGGUUUUUUUUCUUUUUCCUGCUGUAUAACUCCUUGCCAUGCAAACUCUCAAGAGGCCAAUAUAUUCCUGGCCAUGUUUGAAUG | 1.01
GUUCGCAGCUGAGUUGUGAUACUGACCUGGUAAUCAGACCAAAGUACUGUCCCGGCUGGUUUUAUCUCAGCUCCUCUCAGCCGUGUCUCUGGCACGCUUGAGAGGAGUCA | 0.226
GUUCCAUUUCGUGCCGCUUUCCCCCUUCAAGAUGCCAUUUGGAGGGUAGGGGAUCUGCUUCCCACUGUGACUGGGCUAUGGGAUUCUGACUACCUUGCUUACAGAUUCAU | 0.552
CCGCUGGUGAAUGGAGUACCUAAAUAAGCUACAUAAUUCCGAAGUUAUAUUUCCUCUACCAUUUCCGUAAUUCUUACUCCAUUUUAGAAAACUUUGUUAGGCCAAAGACA | 0.458
CUAAUAGUGUCUGAACAUGGUUCAAGAAUAAGAGAUUCCAUGUAGCAUUUUCUUUAUUAUUUUCAUUUCCCUUAUAUUAUCCAUCAUUCCUUAAGGACAAUUAUUCUUAA | 1.08
GCCGCCUUCCUGUGCCAAAUUCAGUGGGGACUCAGUGCCCAGGCCCUGGCCACGAGCUUUGGCCUUGGUCUACCUGCCAGGCCAGGCAAAGCGCCUUUACACAGGCCUCG | 0.338
GGAAGUCCAGAAAGGAAAAUAAUUUAAAUUAAUGCUGGUGAUCUUAACAAUAUUUUGUAAAAUGAUGCUUCCCCCUUCUCCAUGGUCUAGUCAAUUUUGUACAAUUAGGU | 0.558
ACGUACGCAGUGUUUACUCAGUGUGGCUCCCGCCUCAGACUGAAUUAAAGUAUUACUAUAGCAUGCCUCUCAGAACUGCUAGCUUCCUAAUAAACCACAAAUCCACCGUU | 1.81
AUGGGCCUAAACUAUGAGAGUUCAGAAAUAUAUAAAAGUACAAAAAUCUUCAAAGGUACUUAUUUCCAAAUAUGGAGGGAAUGAAUCUGAAGAGGGAACAAUGGCGUUUU | 0.425
GCCACAUACCCUCAUCUGUGCUGUCAGUGUGUCUCUGGUGGGGCAGACUUUGCACUUACUGCAGUGCACCACUUGCACUUUACUCCCUCCGGCUUCUGAGACAGAGCAAG | 0.552
GCUGGGGCCAUGCCGAGUCGCGGCCCUGCUCAGCCGGAAGAGGCUCCCGGACCUGGAUGUACAGGGCAGUCUCUCUUCCCGGGGCUAUGGCUGGGCCUGUCCUGCCGUCA | 0.554
GACUUAAUCAACUAUAAAAGCUUACAAUUAGUCUUCACAAUUAUGGGAUUGUUAUACUAACUGUGUGAUUGGAACUCCAAAGACCUUUUCUUUAGCUUAAUUUUGUGUGU | 0.873

Some of these lines once more (series 1):
Strand | log fluorescence
GACGGTATCGACACTGCGGACGTGCTA | 1.56 z-score
GACGATATCGGTTTCGGGACGTGCTAG | 7.73 z-score
GGCGGTTTCCTTTCCCTGACGTGCTAG | 1.09 z-score
TTAGGTATGGACACTGGGTTAGTGCTA | -0.166 z-score
GACGATCCCAGTTTCGAGACGTGCTAG | 4.74 z-score
GACGGACTTGGGACTGGGGACGTGCTA | -0.319 z-score
GACGGTTTCGGTATCGGGTCGTGCTAG | 10.5 z-score
GACAGTTTCGGTCTCGGGACGTGCTAG | 10.8 z-score
TTAGGACTGTACACTGGGTTAGTGCTA | 0.0377 z-score
TTAGATTTCGGGTAGCGATTAGTGCTA | 5.55 z-score
